Published values of several laboratories.
Every numbered part comes from another study and shows a few of its results, in no order.
Sequence of UniProt Q04912 (whole entry, looked up): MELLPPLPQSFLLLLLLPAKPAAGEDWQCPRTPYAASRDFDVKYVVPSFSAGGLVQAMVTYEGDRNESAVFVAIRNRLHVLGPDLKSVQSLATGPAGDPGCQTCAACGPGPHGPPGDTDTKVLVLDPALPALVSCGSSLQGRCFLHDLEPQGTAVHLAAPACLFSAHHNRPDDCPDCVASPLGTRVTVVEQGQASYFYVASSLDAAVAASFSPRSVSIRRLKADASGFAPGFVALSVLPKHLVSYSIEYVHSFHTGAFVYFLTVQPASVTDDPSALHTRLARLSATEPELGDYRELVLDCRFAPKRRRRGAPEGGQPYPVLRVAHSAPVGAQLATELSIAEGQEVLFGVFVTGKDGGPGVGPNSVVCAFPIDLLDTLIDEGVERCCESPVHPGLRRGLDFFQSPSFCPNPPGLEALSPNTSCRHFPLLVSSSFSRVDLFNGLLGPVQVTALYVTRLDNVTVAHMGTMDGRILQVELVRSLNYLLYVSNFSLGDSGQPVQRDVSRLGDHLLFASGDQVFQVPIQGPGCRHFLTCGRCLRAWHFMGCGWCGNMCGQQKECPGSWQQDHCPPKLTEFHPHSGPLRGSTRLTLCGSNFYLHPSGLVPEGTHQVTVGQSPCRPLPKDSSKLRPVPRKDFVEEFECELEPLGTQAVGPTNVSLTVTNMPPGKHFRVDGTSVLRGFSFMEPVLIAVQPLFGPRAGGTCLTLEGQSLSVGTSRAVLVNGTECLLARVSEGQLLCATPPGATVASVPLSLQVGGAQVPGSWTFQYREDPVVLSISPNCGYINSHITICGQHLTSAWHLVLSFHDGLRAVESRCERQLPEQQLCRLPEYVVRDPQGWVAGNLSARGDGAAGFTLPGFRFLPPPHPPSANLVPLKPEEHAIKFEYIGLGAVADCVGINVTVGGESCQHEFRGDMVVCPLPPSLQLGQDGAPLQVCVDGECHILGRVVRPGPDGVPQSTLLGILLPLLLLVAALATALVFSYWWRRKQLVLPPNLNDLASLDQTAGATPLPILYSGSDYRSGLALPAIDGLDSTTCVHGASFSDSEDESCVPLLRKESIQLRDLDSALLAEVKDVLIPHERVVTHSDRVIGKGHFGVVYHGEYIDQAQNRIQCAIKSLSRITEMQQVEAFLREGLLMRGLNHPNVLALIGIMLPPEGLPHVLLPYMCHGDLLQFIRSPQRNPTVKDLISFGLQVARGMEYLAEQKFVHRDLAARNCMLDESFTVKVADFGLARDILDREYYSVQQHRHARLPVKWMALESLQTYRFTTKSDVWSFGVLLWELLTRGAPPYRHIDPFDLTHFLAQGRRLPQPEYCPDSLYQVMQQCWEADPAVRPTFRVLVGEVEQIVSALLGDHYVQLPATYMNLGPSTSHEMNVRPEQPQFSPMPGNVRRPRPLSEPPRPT
Sequence of UniProt Q8IYT8 (whole entry, looked up): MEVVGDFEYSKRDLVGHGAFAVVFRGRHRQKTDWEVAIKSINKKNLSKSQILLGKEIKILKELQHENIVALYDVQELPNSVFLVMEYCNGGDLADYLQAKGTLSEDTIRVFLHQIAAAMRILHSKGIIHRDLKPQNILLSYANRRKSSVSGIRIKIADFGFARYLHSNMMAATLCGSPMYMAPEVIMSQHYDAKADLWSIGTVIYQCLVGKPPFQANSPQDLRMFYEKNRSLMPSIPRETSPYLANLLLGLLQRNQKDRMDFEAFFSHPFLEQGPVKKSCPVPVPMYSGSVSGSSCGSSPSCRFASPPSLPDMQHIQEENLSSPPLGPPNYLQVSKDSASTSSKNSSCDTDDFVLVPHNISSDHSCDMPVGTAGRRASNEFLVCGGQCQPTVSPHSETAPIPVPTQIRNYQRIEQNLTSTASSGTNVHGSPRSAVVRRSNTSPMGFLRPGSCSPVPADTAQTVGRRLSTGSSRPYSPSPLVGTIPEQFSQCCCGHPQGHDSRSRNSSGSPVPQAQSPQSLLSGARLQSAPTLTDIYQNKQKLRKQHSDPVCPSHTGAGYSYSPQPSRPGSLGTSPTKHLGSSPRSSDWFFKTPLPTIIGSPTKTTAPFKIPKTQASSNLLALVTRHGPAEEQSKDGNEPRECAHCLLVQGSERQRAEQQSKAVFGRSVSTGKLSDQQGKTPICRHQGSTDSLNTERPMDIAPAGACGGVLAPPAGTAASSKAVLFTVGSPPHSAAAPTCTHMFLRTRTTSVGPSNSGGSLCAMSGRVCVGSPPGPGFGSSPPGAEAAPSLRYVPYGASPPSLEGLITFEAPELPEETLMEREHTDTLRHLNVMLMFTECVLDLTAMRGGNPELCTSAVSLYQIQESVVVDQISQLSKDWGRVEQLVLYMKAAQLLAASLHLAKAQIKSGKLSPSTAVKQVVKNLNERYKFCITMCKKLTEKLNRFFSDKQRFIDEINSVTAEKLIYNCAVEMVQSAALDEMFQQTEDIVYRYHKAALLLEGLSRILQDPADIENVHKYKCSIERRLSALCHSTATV
Sequence of UniProt P11362 (whole entry, looked up): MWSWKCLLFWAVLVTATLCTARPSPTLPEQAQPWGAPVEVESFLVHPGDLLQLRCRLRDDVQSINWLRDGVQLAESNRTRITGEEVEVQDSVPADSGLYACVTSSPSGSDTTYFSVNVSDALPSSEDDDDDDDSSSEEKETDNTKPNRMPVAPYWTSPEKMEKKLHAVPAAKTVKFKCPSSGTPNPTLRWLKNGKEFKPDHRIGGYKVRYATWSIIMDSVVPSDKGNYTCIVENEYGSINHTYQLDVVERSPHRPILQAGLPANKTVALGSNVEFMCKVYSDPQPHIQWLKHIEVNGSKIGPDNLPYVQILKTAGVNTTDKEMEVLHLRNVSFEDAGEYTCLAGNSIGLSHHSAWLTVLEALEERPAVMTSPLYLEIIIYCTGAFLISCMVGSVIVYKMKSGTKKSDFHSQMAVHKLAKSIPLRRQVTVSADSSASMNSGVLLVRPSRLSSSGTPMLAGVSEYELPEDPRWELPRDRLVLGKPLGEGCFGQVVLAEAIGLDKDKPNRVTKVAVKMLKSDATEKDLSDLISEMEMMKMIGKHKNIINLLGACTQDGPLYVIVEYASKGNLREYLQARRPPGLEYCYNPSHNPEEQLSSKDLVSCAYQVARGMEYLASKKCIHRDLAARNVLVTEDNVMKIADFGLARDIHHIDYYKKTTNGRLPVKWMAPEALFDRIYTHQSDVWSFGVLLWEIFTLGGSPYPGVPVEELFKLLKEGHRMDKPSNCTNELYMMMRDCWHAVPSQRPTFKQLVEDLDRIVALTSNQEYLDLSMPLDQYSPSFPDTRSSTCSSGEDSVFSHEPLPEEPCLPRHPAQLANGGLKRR
Sequence of UniProt P06239 (whole entry, looked up): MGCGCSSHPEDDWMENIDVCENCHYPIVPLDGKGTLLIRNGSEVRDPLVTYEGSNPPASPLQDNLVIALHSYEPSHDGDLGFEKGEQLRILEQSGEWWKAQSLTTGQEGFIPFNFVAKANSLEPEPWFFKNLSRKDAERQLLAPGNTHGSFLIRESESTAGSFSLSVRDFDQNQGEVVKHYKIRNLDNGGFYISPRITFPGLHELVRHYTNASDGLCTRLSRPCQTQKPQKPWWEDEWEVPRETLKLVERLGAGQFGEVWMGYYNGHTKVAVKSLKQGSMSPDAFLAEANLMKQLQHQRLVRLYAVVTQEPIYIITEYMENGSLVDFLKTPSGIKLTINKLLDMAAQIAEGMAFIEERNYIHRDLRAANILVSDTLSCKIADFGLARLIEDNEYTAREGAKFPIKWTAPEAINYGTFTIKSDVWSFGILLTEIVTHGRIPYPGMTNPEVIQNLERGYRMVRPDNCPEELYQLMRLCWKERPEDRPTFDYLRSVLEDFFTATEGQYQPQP
Sequence of UniProt Q8WTQ7 (whole entry, looked up): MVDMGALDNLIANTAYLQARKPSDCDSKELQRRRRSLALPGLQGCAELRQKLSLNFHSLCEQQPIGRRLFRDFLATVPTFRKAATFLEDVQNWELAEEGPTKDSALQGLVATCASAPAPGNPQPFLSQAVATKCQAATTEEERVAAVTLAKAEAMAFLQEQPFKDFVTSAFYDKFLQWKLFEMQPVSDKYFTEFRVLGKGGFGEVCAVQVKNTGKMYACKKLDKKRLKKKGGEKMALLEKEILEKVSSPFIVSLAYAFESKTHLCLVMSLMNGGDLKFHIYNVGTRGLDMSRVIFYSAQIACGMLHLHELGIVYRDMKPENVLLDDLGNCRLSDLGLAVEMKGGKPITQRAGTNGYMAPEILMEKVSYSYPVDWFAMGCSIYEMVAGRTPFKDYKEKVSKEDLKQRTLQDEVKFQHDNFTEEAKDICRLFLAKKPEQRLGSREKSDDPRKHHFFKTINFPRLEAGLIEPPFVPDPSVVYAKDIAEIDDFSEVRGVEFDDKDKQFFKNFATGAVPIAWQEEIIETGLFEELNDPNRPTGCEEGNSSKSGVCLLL
Sequence of UniProt P28221 (whole entry, looked up): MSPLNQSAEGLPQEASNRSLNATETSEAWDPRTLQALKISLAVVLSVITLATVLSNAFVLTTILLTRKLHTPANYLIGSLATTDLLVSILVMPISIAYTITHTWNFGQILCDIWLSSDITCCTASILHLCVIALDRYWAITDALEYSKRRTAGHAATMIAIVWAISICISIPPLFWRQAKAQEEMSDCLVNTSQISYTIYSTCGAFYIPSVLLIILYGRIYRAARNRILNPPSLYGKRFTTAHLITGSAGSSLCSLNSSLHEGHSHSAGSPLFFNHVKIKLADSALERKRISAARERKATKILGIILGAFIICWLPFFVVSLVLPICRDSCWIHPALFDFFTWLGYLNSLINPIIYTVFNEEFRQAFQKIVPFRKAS

Set 1
Compound: N#CC(=C(N)Sc1ccc(N)cc1)c1ccccc1C(F)(F)F
Read-out: enzyme activity
Mode: inhibitor
Tested at: 0.5 µM
Baseline: control
| target | remaining activity [%] |
| --- | --- |
| Serine/threonine-protein kinase ULK2 (ULK2, Homo sapiens, UniProt Q8IYT8) | 115 |
| MAP kinase-activated protein kinase 2 (MAPKAPK2, Homo sapiens, UniProt P49137) | 103 |
| Serine/threonine-protein kinase ULK3 (ULK3, Homo sapiens, UniProt Q6PHR2) | 106 |
| Macrophage-stimulating protein receptor (MST1R, Homo sapiens, UniProt Q04912) | 90.4 |
| Angiopoietin-1 receptor (TEK, Homo sapiens, UniProt Q02763) | 104 |
| Mitogen-activated protein kinase kinase kinase 5 (MAP3K5, Homo sapiens, UniProt Q99683) | 108 |
| Casein kinase I isoform gamma-2 (CSNK1G2, Homo sapiens, UniProt P78368) | 96.4 |
| Ephrin type-A receptor 3 (EPHA3, Homo sapiens, UniProt P29320) | 105 |
| Tyrosine-protein kinase JAK3 (JAK3, Homo sapiens, UniProt P52333) | 101 |
| Tyrosine-protein kinase Lck (LCK, Homo sapiens, UniProt P06239) | 107 |
| Rhodopsin kinase GRK7 (GRK7, Homo sapiens, UniProt Q8WTQ7) | 113 |
| Fibroblast growth factor receptor 1 (FGFR1, Homo sapiens, UniProt P11362) | 108 |
| Activin receptor type-1B (ACVR1B, Homo sapiens, UniProt P36896) | 101 |
| Tyrosine-protein kinase FRK (FRK, Homo sapiens, UniProt P42685) | 102 |

Set 2
Target: Max-binding protein MNT, bHLH-zipper, MAX partner unstated (MNT, Homo sapiens, UniProt Q99583, residues 220-300)
Technique: protein-binding microarray
Form: double-stranded DNA, one strand shown
Sample: in vitro
Tested at: not given
Notes: k-mer, scored over probes, only values ≥0.25
Reading: higher = stronger binding
Construct (chain): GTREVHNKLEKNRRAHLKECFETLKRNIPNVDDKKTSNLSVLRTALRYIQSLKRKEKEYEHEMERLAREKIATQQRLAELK
| Oligonucleotide | E-score |
| --- | --- |
| CGGGGAAC | 0.293 |
| GCGCACCC | 0.289 |
| CAGCGCAG | 0.259 |
| CAGGGGCG | 0.29 |
| TGTGTCAA | 0.272 |
| CGTGCTAA | 0.308 |
| ACAGCGTG | 0.427 |
| ACGGCATG | 0.389 |

Set 3
Target: Fragile X messenger ribonucleoprotein 1, C-terminal low-complexity region (Fmr1, Mus musculus, UniProt P35922)
Technique: RNA Bind-n-Seq
Form: RNA
Sample: in vitro
Tested at: 200 nM
Notes: whole 134-nt RNA, ends assumed
Together with: 150 mM KCl
Baseline: input library
Reading: higher = stronger binding
Shared flanks, not repeated: GGGAGUUCUACAGUCCGACGAUC … UGGAAUUCUCGGGUGUCAAGG
| Oligonucleotide | log2 enrichment |
| --- | --- |
| GCAGGAAGUAAAAACAAAUGGAAAUGCUUCGGAUAGAAACAGGGGUGGGGGUUGCUAAGGAAAGGGUGGGAUGGGAGUGGGUAAAGAGUU | 0.29 |
| UAGCCAAGAGUCGAAGCUAAACCAGAAGUUCAAUCUCAGCCACCUCGUGUGCGUGAACAACGACCUAGAGAACGACCUGGUUUUCCUCCU | -0.234 |
| CUGUGCUACACAUCGUAUGUACCGAAUCGGGGCCCCCCCGGCCCCCCCGGGCCCCCCCGGGAAAGUAUUAUGUUACGCCGUUCGGAUCUG | -1.12 |
| CUCAAGUCCUGUGCUACACAUCGUAUGUACCGAAUCGGUUUUUUUGGUGGUGGAAAGUAUUAUGUUACGCCGUUCGGAUCUGCACUUCCA | -0.0119 |
| ACCAUGCAGGUGGGCAUCUUUGGGAAGUGGGGCAAGGGGAAAAUAGGGAGGGGGGUAACACUUUGGGAACAGGUGGUCCCAGGUCGUUUC | 0.75 |
| CUCAAGUCCUGUGCUACACAUCGUAUGUACCGAAUCGGCCCGGCCCGGCCCGGAAAGUAUUAUGUUACGCCGUUCGGAUCUGCACUUCCA | -0.00865 |
| UUUGAAAAAGAAGAAAAAGAAAAAGAAGGGUAAGGCAUUAAAAAAGUCUUUAUAAAUUUUCUCCAAAAUAAAUGUUUGAUUUUAGCCCUA | -1 |
| GCAGGAAGUAAAAACAAAUGGAAAUGCUUCGGAUAGUGGCAGGGGUGGGGGUUGCUAAGGAAAGGGUGGGAAGGGAGUGGGUAAAGAGUU | 0.0648 |

Mixed results
| SMILES | target or system | read-out | technique | tested at | baseline | measurement | result |
| --- | --- | --- | --- | --- | --- | --- | --- |
| COc1cccc(NC(=O)c2nc3scc(CN(C)Cc4ccccc4)c3c(=O)[nH]2)c1 | sample B colorectal tumour organoid | – | – | 1 µM | DMSO | viability | 110% |
| CN(C)C(=O)/C(C#N)=C/c1ccc(-c2nc3cnc4c(ccn4C)c3n2C2CCCCC2)o1 | sample BA colorectal tumour organoid | – | – | 0.1 µM | DMSO | viability | 87.6% |
| CN(C)[C@@H]1CCN(c2cc(-c3ccccc3)nc3ccnn23)C1 | 5-hydroxytryptamine receptor 1D (HTR1D, Homo sapiens, UniProt P28221) | cell-free assay | radioligand | – | – | Ki | 1480 nM |

Repeated from above (set 3):
| Oligonucleotide | log2 enrichment |
| --- | --- |
| UUUGAAAAAGAAGAAAAAGAAAAAGAAGGGUAAGGCAUUAAAAAAGUCUUUAUAAAUUUUCUCCAAAAUAAAUGUUUGAUUUUAGCCCUA | -1 |
| CUGUGCUACACAUCGUAUGUACCGAAUCGGGGCCCCCCCGGCCCCCCCGGGCCCCCCCGGGAAAGUAUUAUGUUACGCCGUUCGGAUCUG | -1.12 |
| CUCAAGUCCUGUGCUACACAUCGUAUGUACCGAAUCGGCCCGGCCCGGCCCGGAAAGUAUUAUGUUACGCCGUUCGGAUCUGCACUUCCA | -0.00865 |
